# Measured values from different studies.
# A part holds a random share of what one study measured. Positions count from the first letter of the parent shown.

# Study 1 — technique: DHFR PCA, deep sequencing; medium: yeast; added: (+)-ABA 710 µM; baseline: wild-type fitted maximum; reading: higher = stronger binding
# Target: ABI1, truncated, D143A, DHFR fusion (Arabidopsis thaliana)
# Notes: methotrexate growth selection, single substitutions
# Starting sequence: PYL1, truncated, DHFR fusion (Arabidopsis thaliana); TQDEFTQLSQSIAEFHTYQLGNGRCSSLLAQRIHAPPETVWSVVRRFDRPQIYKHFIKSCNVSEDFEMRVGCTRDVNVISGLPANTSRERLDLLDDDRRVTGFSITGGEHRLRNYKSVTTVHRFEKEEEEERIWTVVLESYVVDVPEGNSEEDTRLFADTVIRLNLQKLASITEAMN
Substitution,relative binding score [%]
L91T,8.06
D48M,49.2
Y18D,87.4
V44C,95.5
D159V,16.1
S80H,80.3
E127V,110
G81A,76
D144Q,88.1
S59I,91.1
A13P,63.2
V137P,-5.12
M68F,105
N177G,101

# Study 2 — technique: RNAcompete; form: RNA; medium: in vitro; tested at: 20 nM; notes: 7-mer, probes averaged, single round; baseline: mean of 7-mers; reading: higher = stronger binding
# Target: PABPC1L2, full length, GST fusion (mouse, UniProt A0ABA7IW68)
Oligonucleotide,7-mer Z-score
CCUCCAC,-0.389
AACAGAA,1.46
ACCCACU,-0.282
CGAGACA,0.233
GAAGCAC,-0.0301
UCAAGUC,-0.313
CCGUCUU,-0.378
CCAGAGG,-0.0699
UCUUCCU,-0.38
GUUUAGC,-0.307
CUUCAGC,-0.293
GUUGGCG,-0.211
CACGACU,-0.0645
AUCUCGA,-0.168
UUCCAUA,-0.275
UAACUUG,-0.298
CCUAGUC,-0.532
GACAAGG,0.383
CUGGUCC,-0.166
UAGGACG,0.177
UGUUAAA,0.423
UUUGCAG,-0.347
UCGCCAU,-0.396
CCUUACC,-0.347
GCCCUUA,-0.354

# Study 3 — target: CCNA2, cyclin fold, Cln2 fusion (human); technique: yeast growth competition, sequencing; medium: yeast; notes: strong parent motif; baseline: not given; reading: higher = stronger binding
# Starting sequence: WEE1 docking peptide (human); HKTFRKLRLFDTP
Substitution,normalised enrichment score
HKDFRKLRLFDTP [T3D],-0.295
HKTFRWLRLFDTP [K6W],2.5
HKTFRKLRLFETP [D11E],1.28
HKTFRKLRLFDCP [T12C],1.21
HKTFRKLRLFDRP [T12R],1.7
HKTARKLRLFDTP [F4A],1.65
HKTFRKLRLFDYP [T12Y],0.833
HKTFRKLRLFTTP [D11T],1.58
HKTFRKLRPFDTP [L9P],0.996
HKTFRKNRLFDTP [L7N],1.33
HKTFRKWRLFDTP [L7W],1.88
HKTFRKLRLFDTC [P13C],2.15
HKTFRKLRLCDTP [F10C],0.675
HKTFRKLRLFCTP [D11C],2.03
HKTFRKVRLFDTP [L7V],1.31
HKTFRKARLFDTP [L7A],0.625

# Study 4 — technique: RNA Bind-n-Seq; form: RNA; medium: in vitro; tested at: 365 nM; baseline: no-protein control; reading: higher = stronger binding
# Target: RNA binding protein fox-1 homolog 2, RRM domain, GST-SBP tag (RBFOX2, Homo sapiens, UniProt O43251-10, residues 100-194)
# Notes: natural RNA segment, single round, ends assumed
# Residues (chain): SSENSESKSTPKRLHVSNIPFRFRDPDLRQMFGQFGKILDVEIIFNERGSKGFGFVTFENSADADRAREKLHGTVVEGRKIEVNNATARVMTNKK
Oligonucleotide,RBNS enrichment (R)
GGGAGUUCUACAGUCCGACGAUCACCAUGCUAAGCCAUGACCAGUGAGGAGAAGCAACAGAGCCUGUCUGUCCCCAUGAGCGGAGUCUGUCCUCUGCUCUUCUGCAGUCAGGUCACUGCCUACUGCCUGGGGGUGGAAUUCUCGGGUGCCAA,0.238
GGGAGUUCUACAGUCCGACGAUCUGGCUGAGUCCUUCUCAUCAUGGGACGAGUGAGCCAGAGCGGGGGAAAGGGCAUGAAGUAAAGCGUUGCCUGAAUGCUGUGUGGUGUUUUGUUUCUUCCUCCUUCCUAUGUGGAAUUCUCGGGUGCCAA,0.895
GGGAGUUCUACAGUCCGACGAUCAGGCAAUACAGUGGGACAGUUAGGAAUGCACCCGGGGCCUCCUGCAGAUUUCGGAAAUUGGCAAGCUACGGGAUUCCUUCCUGAAAGAUCAACUGUGUCUUAAGGCUCUCUGGAAUUCUCGGGUGCCAA,0.508
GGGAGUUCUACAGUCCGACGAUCUUCCUGCCCCCUCUGAGGCCUGGCUCUGUUUUAGGGAGAUCACUGGGCCCAGGCCUCAGCCCCAGUUCUACCUGGCUUGCUGUCACCGCUCUAGGGGUGGGGGACGUCCCUGGAAUUCUCGGGUGCCAA,0.539
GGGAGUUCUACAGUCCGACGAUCCUACCUGGUGGGCUGGUUGAGGAUGGGAGAGAGUUGGCUGUGUGCCAUGUUCAGAUGUAUGGUGGAUGUUACUGUCACAAUAAAGUUCAAAGUGGCCAGUGCCCAUCAGAUGGAAUUCUCGGGUGCCAA,1.04
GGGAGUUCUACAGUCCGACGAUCAAAGGAAAGGACCCUGAAGCCAAUAUCUGAUUCUCGGCUGCACCUUCUCUUGGCCACCCUGGCCCUGACCGGGCCAGCACGUGCACACUGGCCUCUUUUCAUUUCACUAGUGGAAUUCUCGGGUGCCAA,0.646
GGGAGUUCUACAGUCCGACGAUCACCCAGGAUGGAACACGAAACCACACGUGCCGUGACCUUUAGGUUUAUGAGUAGACAGUGUUAAUUUGAUUUUCUACAGGAAUUAUGUAACUUAUUCUUUAGGUUUAAAAUGGAAUUCUCGGGUGCCAA,0.37
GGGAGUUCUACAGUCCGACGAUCUUCUUCUCUUCUAUCAUCCAAAUCAAAUGUAAGAAGUCCCUCACAUCCGAUUAGCCCAACUCUGUCUCCCAGGCCCCCUGCUGGGAAACCCAUACCCAGCAUCCCUCCCCUGGAAUUCUCGGGUGCCAA,0.657
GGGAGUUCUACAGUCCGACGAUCAAUCCCUGCAGCCUAGCCUCCCCACCCUCCAGAACCUGGAAUAGCUGAGCAGCUCAGGCUGUGGCCCUUACCUCCAGUCCUCACCUCAACCUGCGCUGCAGCCUCCCUCCUGGAAUUCUCGGGUGCCAA,0.336
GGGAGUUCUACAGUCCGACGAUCGCAGGGUUCCUGUGGCCCAGGAUGGAGGCCACCGCUGCCCUGCCAUCCCGUCUGCCUGCCAUGGGACGGCUCCUCUGAGUGUUCCCUGGCCCCACGUGUGUGGUGUUUGUUGGAAUUCUCGGGUGCCAA,0.328
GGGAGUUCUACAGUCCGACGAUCAAAAAUAUAAGAACUUGAUAUAUUUCAUUCUCUUAUAUAGUAUUCAUUUUCCUACCUAUAUUACACAAAAAAGUAUAGAAAAGAUUUAAGUAAUUUUGCCAUCCUAGGCUUGGAAUUCUCGGGUGCCAA,0.481
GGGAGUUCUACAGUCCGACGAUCGGAGGAACAAAUUACAAGUGUACCCAAUAACUGAAAAUGUUUUAACUCACUCUCAUUUGUAAGCAGUCCACAUAGUAGACAAUGGGUUUUCCAAGCUGGGCAAGGUACAUUGGAAUUCUCGGGUGCCAA,0.442

# Study 5 — technique: RNA Bind-n-Seq; form: RNA; medium: in vitro; tested at: 100 nM; baseline: input RNA pool; reading: higher = stronger binding
# Target: RING finger protein unkempt homolog, zinc fingers 1-6, SBP tag (UNK, Homo sapiens, UniProt Q9C0B0, residues 30-357)
# Chain of UniProt Q9C0B0 (30-357, looked up): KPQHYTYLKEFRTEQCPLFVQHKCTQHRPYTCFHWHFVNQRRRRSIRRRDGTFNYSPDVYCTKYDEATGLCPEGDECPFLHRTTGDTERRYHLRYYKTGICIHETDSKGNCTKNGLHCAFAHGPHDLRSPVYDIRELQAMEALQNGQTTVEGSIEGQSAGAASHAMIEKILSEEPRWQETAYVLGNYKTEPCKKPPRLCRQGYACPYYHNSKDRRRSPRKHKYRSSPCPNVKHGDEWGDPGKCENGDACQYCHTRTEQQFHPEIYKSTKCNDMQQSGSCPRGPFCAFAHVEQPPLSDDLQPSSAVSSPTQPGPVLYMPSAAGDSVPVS
# Notes: RNA with constant flanks, vertebrate orthologous sites, ends assumed
Oligonucleotide,bound/input enrichment
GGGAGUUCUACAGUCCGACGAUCUAUAAUUAUGAAAAUCUAAAGGAUUUUUAAUGUUUAAUUUCCCCCAGCAUAUAUAUUAAGACCUCUUUUUCCAGGCCGAUCAUUCAGAGUGUGCGAGUGUGUGUGCACAUGUUACAAAGACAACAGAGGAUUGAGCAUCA,0.694 ratio
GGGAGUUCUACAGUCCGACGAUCUGUAUGUUUGGGUUAGAUGGGAGGGUGGGGCAGGACAGUAUGGAAUCUCUAUAGAGUGUGUGGGUAGAUAGGAUACACACUUAGCUCUAAGUGGGCCUUGAUGUUUAAAAACCUAGGAGUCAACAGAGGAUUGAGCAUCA,0.367 ratio
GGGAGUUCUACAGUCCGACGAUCCUGAAGCUUUGUGUUUGGCUGCACCUGCAUAAGCUGCUACAAAUAGAAUAAAGAAUUUCAUAGCCUGUAUCUAUCAUUUAGAUGCAUGGAAAAUGGGCUUUGCACAAAAUGGGUUUGGAGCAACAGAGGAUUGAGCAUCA,1.58 ratio
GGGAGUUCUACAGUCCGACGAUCUCCCAGCACUUUGAUAAAAAGCGUGGACUGGUUGCUCGUAUUUUCCUUAUUCUUUUUAAUUAGUUUUAUUAUGUAUGCUACCAUUCGAACUGAGAGUAUUCGGUGGCUAAUUCCAGGACACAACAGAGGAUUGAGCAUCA,3.23 ratio
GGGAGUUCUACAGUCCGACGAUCGUACUGCCCGUGCAAAUCCCACAACACUGAAUGCAAAGUAGCAAUUUCCAUAGUCACAGUUAGGUAGCUUUAGGGCAAUAUUGCCAUGGUUUUAUUCAUGUGCAGGUUUUGAAAAUGUACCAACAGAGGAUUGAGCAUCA,1.64 ratio
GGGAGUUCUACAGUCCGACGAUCGUGCAAGGAGAUUAUUCCAACUAGUGAAUUUAUUAACAGUAAGUUGACAGCAAAAGCAAAUAGGCAGCUUCAAGAUCCUUUAGUAAUCAUGACAGGAAACAUCCCAACAUGGCUCACUGACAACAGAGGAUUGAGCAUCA,0.908 ratio
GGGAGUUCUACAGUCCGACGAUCCUCUUCUCCCCUGACCUGAUUUUAAAGGGCCCCUUUUUUUCUUUUCUUUUUUAGGCAUAUGUAGUAAUAUUAGCAGAAAGAUUUAAUUUGGGCAACUUUGAUUCUUAAAAGAGAAAGCAACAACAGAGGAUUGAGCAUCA,1.29 ratio
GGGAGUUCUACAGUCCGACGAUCUUCACCACUCCUGGGUGCGUGACUGAGGGUGAAGCAUCCACCAGCACUUCAAGGGGUCCAUAGUAUUUUCUUUUGCUGCCUCAAAGUCCCCAAAGCCUUCAAGCAGAAGUGGCAGUAGAUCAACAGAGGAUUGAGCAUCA,0.671 ratio
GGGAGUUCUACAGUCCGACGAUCGAAAUGGCCAGUGGAGGAAUCCCUGCCUUGGCCUUGCCUCCCCUCCUUGCCACCUGCUCCUAGGUAUUUUUUUUUUUAACCACCACGUGAUUCUGGUCGGCACUUCCUCCCCCGACCUGCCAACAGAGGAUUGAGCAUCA,3.15 ratio
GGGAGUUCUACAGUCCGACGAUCCUUAGUUAGAGCUUACCAUAUAUUUCAUAAAGGAGAAUCUUUAUAAUUUUGUUUGUCAUACAGUAUUUUGGAAUUUGUAUAAUGAGGAUGUUUAGAAGCCAUAUUAGUGGCUUUUUUUAACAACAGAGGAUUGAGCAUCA,0.451 ratio
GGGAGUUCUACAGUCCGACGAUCGCAGUGAAAAAGCAGCCCUUCUCCCAGCCCCUUUUUCACUAGGAGAUACAAACGUUACCAUAGAAGAGCAAUUAAACUCAAUAAAUUUAUCUUUUCAGGAUGAUCCAGACUCCAGUACCACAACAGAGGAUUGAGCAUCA,1.5 ratio
